Measured values collected from several papers.
Protocols differ between the studies behind these lines.

Compound	target or system	test	test system	setting	scale	endpoint	value
O=C(Nc1cnccc1-c1ccc([18F])cc1)c1ccnc(NC(=O)C2CC2)c1		ex vivo biodistribution, gamma counting	GSK-3β overexpressing transgenic mouse, late stage, adipose tissue	intravenous, 1.26 MBq/animal, 120 min post-injection		mean SUV	0.13
CCCCCCCOc1ccc(CC[C@](N)(CO)COP(=O)(O)O)cc1C(F)(F)F			healthy human males, plasma	oral, 0.125 mg, day 21		half-life	378 h
CNC(=O)C1CCCN(C(=O)C2CC3CCC2N3C(=O)[C@@H]2C[C@@H](O)CN2C(=O)NCc2cccc(Cl)c2F)C1 (mixture of isomers)		metabolic stability	dog, liver microsomes			half-life	3.88 h
C[C@]12C[C@H](c3ccc(S(C)(=O)=O)cc3)C3=C4CCC(=O)C=C4CC[C@H]3[C@@H]1CC[C@@]2(O)C(F)(F)C(F)(F)F			human, plasma	oral, 5 mg multiple doses, day 28		half-life	51.7 h
Cl.NCc1ccc2c(c1)CN(C1CCC(=O)NC1=O)C2=O (stereo not shown)			human, mixed sex, whole blood			half-life	> 3 h
C=C(NC(=O)c1csc(-c2nc3c(cc2O)-c2nc(cs2)C(=O)NC(C(C)O)C(=O)NC(=C(C)OC)c2nc(cs2)C(=O)NC2c4nc(cs4)C(=O)NC(COC(=O)c4c5c6c(cccc6n4O)COC(=O)C(OC4CC(C)(O)C(N(C)C)C(C)O4)C2OC5)c2nc-3cs2)n1)C(N)=O (stereo not shown)			cynomolgus monkey, female, plasma	intravenous infusion, 9 mg/kg single dose		clearance	3.72 mL/min/kg
C[C@]12C[C@H](c3ccc(S(C)(=O)=O)cc3)[C@@H]3C4=C(CC[C@H]3[C@@H]1CC[C@@]2(O)C(F)(F)C(F)(F)F)C(=O)[C@H](O)CC4			human, plasma	oral, 5 mg multiple doses, day 28		half-life	124 h
CC[C@H](C)[C@@H]1NC(=O)[C@H](Cc2ccc(O)cc2)NC(=O)CCCSC[C@@H](C(=O)N(CC(=O)N[C@@H](CC(C)C)C(=O)NCC(N)=O)Cc2ccc(F)cc2)NC(=O)[C@H](CC(N)=O)NC(=O)[C@H](CCC(N)=O)NC1=O			human, plasma	intravenous infusion, 20 µg, 25 min infusion, harmonic mean		half-life	~0.167 h
Cn1cnc([N+](=O)[O-])c1Sc1ccccc1C(=O)NCCC(N)=O		metabolic stability	cynomolgus monkey, blood	1 µM, whole blood		half-life	0.653 h
COC1CN([C@H]2CC[C@H]([C@@]3(C)Oc4c(Cl)cc(C(=O)NCc5c(SC)cc(C)[nH]c5=O)c(C)c4O3)CC2)C1		RNA-seq, measured: CDKL1 mouse homolog	mouse, HT-1376 xenograft, whole blood	dose not given	relative to: vehicle	log2 fold change	0.964
C=CC(=O)Nc1cccc(Cn2ncc3cnc(Nc4cnn(CCOC)c4)nc32)c1	ULK2 human	binding, KINOMEscan		100 nM	lower = stronger binding	percent of control	97%
CCC(CC)CNC(=N)NC(=N)NCCCCCCNC(=N)NC(=N)NCC(CC)CC		metabolic stability	dog, hepatocytes	1 µM		half-life	2.53 h
[2H]C([2H])([2H])Oc1cc2c(cc1OC([2H])([2H])[2H])[C@H]1C[C@@H](O)[C@H](CC(C)C)CN1CC2		measured: compound	human, male, plasma	oral, 25 mg [14C]-deutetrabenazine, geometric mean		half-life	12.2 h
Nc1ncc(-c2cc(-c3cnn(CC(F)(F)F)c3)ncc2F)nc1C(=O)NC1CNCC(F)C1 (stereo not shown)	SRPK1	KINOMEscan		1 µM	relative to: DMSO control	remaining binding	80%
O=C(c1ccccc1)N1C(c2ccc(OCC3CCN(CCCF)C3)cc2)c2ccc(O)cc2CC12CC2 (stereo not shown)			C57BL/6J mouse, plasma	intraperitoneal, 25 mg/kg, group mean		half-life	3.61 h
C/C(N)=N/C(=N\S(=O)(=O)c1ccc(C(F)(F)F)cc1)N1C[C@H](c2ccccc2)C(c2ccc(Cl)cc2)=N1		metabolic stability	dog, liver microsomes			half-life	> 2 h

Excerpt of the above:
Compound	target or system	test	test system	setting	scale	endpoint	value
Cl.NCc1ccc2c(c1)CN(C1CCC(=O)NC1=O)C2=O (stereo not shown)			human, mixed sex, whole blood			half-life	> 3 h
